Measurements collected from several papers.
Lines come from different studies, so protocols differ. Numbers after ± are the reported error.
BCHE: Cholinesterase (BCHE, Homo sapiens, UniProt P06276)
Sequence of UniProt P06276 (whole entry, looked up): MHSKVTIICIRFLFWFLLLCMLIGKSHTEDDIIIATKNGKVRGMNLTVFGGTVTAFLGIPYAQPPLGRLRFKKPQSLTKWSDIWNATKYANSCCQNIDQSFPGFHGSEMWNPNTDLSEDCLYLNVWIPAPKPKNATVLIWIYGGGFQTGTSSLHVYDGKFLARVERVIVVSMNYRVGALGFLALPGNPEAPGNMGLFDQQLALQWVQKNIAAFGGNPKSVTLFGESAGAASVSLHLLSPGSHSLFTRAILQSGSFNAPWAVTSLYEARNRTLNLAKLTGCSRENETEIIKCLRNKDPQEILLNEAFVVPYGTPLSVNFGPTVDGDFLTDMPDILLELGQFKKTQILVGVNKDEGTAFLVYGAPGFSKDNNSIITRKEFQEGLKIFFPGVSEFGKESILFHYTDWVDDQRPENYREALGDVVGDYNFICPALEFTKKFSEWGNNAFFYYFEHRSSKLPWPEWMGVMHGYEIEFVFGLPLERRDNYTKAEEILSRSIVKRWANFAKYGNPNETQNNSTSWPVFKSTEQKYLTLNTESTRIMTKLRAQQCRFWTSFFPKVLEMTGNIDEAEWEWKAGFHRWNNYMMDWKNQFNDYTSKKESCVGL
PTGER4: Prostaglandin E2 receptor EP4 subtype (PTGER4, Homo sapiens, UniProt P35408)
Sequence of UniProt P35408 (whole entry, looked up): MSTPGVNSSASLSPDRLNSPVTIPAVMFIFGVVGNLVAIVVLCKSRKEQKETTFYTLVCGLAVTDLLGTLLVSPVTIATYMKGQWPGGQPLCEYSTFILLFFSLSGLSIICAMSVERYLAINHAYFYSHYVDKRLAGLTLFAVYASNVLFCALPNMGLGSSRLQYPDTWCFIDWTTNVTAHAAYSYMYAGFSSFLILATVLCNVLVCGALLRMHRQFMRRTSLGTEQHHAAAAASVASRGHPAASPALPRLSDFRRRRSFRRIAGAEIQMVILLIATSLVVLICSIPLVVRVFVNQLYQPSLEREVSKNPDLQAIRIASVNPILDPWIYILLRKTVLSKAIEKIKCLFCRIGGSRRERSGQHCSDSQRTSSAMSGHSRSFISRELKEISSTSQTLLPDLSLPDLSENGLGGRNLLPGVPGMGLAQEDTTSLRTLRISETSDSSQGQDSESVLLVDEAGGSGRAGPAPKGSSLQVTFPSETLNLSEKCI
Sequence of UniProt P18825 (whole entry, looked up): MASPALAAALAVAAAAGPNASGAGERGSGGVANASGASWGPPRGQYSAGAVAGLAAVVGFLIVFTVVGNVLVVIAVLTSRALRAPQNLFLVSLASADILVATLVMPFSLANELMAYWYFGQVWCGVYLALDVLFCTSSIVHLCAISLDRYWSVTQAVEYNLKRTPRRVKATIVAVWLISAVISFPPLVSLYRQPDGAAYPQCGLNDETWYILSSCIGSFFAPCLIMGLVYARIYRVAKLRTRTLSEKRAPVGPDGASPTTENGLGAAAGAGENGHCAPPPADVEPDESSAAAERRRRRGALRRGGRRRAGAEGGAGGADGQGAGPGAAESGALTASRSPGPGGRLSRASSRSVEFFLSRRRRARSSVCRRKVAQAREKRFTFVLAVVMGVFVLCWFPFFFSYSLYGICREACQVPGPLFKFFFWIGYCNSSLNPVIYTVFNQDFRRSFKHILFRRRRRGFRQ
Sequence of UniProt P46091 (whole entry, looked up): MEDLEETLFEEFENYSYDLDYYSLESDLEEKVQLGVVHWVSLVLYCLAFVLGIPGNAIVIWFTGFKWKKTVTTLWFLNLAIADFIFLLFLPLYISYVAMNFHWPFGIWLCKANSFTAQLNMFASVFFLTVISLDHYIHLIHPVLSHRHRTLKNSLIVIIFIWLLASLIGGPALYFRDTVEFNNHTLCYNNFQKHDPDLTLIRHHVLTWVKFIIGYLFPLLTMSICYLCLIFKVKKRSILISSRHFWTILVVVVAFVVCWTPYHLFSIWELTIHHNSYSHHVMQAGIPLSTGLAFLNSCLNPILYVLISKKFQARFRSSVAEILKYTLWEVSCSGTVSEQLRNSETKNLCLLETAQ
Sequence of UniProt O43242 (whole entry, looked up): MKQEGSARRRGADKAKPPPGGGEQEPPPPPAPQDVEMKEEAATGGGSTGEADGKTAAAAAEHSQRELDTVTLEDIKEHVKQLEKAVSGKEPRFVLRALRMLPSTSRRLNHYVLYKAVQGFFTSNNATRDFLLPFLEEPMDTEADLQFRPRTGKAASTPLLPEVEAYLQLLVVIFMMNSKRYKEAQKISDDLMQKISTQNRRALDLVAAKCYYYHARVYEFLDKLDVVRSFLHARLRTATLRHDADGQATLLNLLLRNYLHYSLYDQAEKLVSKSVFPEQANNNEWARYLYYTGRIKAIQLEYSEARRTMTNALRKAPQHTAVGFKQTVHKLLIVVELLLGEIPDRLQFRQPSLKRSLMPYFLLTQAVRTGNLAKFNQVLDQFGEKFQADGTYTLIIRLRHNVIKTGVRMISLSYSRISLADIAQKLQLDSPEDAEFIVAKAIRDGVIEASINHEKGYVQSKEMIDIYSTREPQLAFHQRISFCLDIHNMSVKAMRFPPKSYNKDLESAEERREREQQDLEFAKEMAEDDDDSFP
Sequence of UniProt O95372 (whole entry, looked up): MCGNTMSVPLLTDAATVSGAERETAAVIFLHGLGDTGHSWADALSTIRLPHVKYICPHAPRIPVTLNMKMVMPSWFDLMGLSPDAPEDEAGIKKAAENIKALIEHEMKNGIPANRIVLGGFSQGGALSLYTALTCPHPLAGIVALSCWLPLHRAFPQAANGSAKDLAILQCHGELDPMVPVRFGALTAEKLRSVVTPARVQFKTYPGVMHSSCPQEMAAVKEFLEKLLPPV
Sequence of UniProt Q02156 (whole entry, looked up): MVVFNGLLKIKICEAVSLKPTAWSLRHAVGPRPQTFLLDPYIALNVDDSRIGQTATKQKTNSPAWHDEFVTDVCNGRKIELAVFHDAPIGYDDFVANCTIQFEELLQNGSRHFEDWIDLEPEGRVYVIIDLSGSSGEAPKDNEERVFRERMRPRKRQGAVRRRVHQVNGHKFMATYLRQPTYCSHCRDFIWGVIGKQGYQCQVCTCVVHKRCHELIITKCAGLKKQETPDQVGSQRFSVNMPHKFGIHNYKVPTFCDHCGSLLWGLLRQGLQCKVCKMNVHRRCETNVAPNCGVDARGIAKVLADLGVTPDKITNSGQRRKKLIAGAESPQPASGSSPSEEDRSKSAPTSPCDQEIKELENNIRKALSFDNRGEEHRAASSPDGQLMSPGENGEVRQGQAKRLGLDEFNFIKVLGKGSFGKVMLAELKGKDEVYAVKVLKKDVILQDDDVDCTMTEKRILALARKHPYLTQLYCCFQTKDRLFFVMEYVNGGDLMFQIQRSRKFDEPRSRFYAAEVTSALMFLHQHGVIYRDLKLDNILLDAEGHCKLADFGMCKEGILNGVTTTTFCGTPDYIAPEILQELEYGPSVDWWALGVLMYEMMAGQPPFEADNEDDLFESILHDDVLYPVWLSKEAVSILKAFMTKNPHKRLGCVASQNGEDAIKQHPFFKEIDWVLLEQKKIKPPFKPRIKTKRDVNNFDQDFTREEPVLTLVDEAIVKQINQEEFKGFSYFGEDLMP
Sequence of UniProt P14416 (whole entry, looked up): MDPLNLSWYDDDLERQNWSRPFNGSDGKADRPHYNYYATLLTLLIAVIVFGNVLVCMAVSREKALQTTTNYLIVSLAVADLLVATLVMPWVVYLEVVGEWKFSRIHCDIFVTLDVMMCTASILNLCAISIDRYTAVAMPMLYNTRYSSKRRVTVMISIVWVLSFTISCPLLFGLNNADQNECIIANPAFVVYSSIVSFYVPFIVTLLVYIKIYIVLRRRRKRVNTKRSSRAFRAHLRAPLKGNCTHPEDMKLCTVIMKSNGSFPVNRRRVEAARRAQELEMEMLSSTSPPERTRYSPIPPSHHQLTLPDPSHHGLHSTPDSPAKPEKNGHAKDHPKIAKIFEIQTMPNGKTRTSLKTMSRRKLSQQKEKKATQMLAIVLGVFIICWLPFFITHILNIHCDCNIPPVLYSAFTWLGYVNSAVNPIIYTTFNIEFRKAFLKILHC

SMILES	target or system	test	system	conditions	how to read	endpoint	value
CC[C@H](C)[C@H](NC(=O)CNC(=O)[C@@H](N)CCCCN)C(=O)N[C@@H](CC(C)C)C(=O)N[C@@H](CCCCN)C(=O)N[C@@H](CCCNC(=N)N)C(=O)N[C@@H](CCC(=O)O)C(=O)N[C@@H](CCCCN)C(=O)N[C@@H](CCCNC(=N)N)C(=O)N[C@@H](CC(C)C)C(=O)N[C@@H](CCCNC(=N)N)C(=O)N[C@@H](CCCNC(=N)N)C(=O)N[C@@H](CCCCN)C(=O)N[C@@H](CC(N)=O)C(=O)N[C@H](C(=O)N[C@@H](Cc1c[nH]cn1)C(=O)N[C@@H](Cc1c[nH]c2ccccc12)C(=O)N1CCC[C@H]1C(=O)N[C@@H](CCC(=O)O)C(=O)N[C@@H](CCC(=O)O)C(=O)NCC(=O)N[C@@H](CCCCN)C(=O)N[C@@H](CC(C)C)C(=O)N[C@@H](CCCNC(=N)N)C(=O)N[C@@H](CCC(=O)O)C(=O)N[C@@H](Cc1ccc(O)cc1)C(=O)N[C@@H](Cc1ccccc1)C(=O)N[C@@H](Cc1ccc(O)cc1)C(=O)N[C@@H](Cc1ccccc1)C(=O)N[C@@H](CCC(=O)O)C(=O)N[C@@H](CC(C)C)C(=O)N[C@@H](CC(=O)O)C(=O)N[C@@H](CCC(=O)O)C(=O)N[C@@H](C)C(=O)N[C@@H](CCC(=O)O)C(=O)N[C@@H](CCCNC(=N)N)C(=O)N[C@H](C(=O)N[C@@H](CC(N)=O)C(=O)N[C@H](C(=O)O)C(C)C)C(C)C)C(C)C	HeLa and HEK-293T cells	phosphatase bead binding, competitive inhibitor, PIB pulldown iBAQ LC-MS/MS, item: PPP6R2		concentration not given	reference: untreated control	log2 fold change	0.07
COc1ccc(N2C(=O)N(c3c(C)cccc3Cl)Cc3cnc(Nc4ccc(C5CCN(C)CC5)cc4OC)nc32)nc1	Protein kinase C epsilon type (PRKCE, Homo sapiens, UniProt Q02156)	kinase activity, inhibitor		0.5 µM, kinase PKC-EPSILON		inhibition	1.54%
CC(N)C(=O)OC(C)(C)Cc1ccc(Cl)cc1 (stereo not drawn)	Plasmodium falciparum		Dd2			IC50	7.94 µM
Oc1ccc2c3c1O[C@H]1[C@@H](O)CC[C@@]4(O)[C@@H](C2)N(CC2CCC2)CC[C@]314	Chemerin-like receptor 2 (CMKLR2, Homo sapiens, UniProt P46091)	β-arrestin recruitment, TANGO luminescence, item: GPR1		concentration not given	reference: basal luminescence	log2 fold change	0.168
Cc1cccc(S(=O)(=O)N2CCC[C@@H]2CCN2CCC(C)CC2)c1.Cl	BCHE			concentration not given, Triton		efficacy	-81.1 ± 6.25%
CNCC[C@@H](Oc1ccccc1C)c1ccccc1	Plasmodium falciparum		GB4			IC50	1.58 µM
CN(C(=O)n1cnc(-c2ccc[n+]([O-])c2)c1)C1CCCCC1	PTGER4	binding, item: EP4		50 µM, human, with: [3H]prostaglandin E2		inhibition	4%
CC[C@H]1CN2CC[C@H]1C[C@H]2[C@H](O)c1ccnc2ccc(OC)cc12	BCHE	inhibitor		Triton		efficacy	-54.3 ± 5%
CN[C@@]1(c2ccccc2Cl)CCCCC1=O	D(2) dopamine receptor (DRD2, Homo sapiens, UniProt P14416)	radioligand binding, antagonist, radioligand displacement		30 µM, long isoform		inhibition	2%
O=C(Nc1cnccc1Cl)N1CCN(Cc2ccc3c(c2)OC(F)(F)O3)CC1	Alpha-2C adrenergic receptor (ADRA2C, Homo sapiens, UniProt P18825)	binding		10 µM, with: [3H]rauwolscine		inhibition	22%
Br.O=C(CN1C2=NCCN2c2ccccc21)c1ccc(-c2ccccc2)cc1	BCHE			concentration not given, Triton		efficacy	-106 ± 4.1%
C[C@]12CC[C@H](O)C[C@@H]1CC[C@@H]1[C@@H]2CC[C@]2(C)[C@@H]([N+](=O)[O-])CC[C@@H]12		[3H]flunitrazepam binding	rat cerebral cortex homogenate	concentration not given		activity	inactive
O=C(c1ccc(Cl)cc1)N1CCN2C(=O)N(OC(=O)N3CCOc4ccccc43)C(=O)C2C1 (stereo not drawn)	Acyl-protein thioesterase 2 (Homo sapiens, UniProt O95372)	enzyme activity, inhibitor, MS-based ABPP	SW-620 in situ	10 µM, 2 h, 37 °C	reference: compound over DMSO, lower = stronger inhibition	median ratio	1.18
CCC(C)CNCC(=O)N1CCc2sccc2C1COc1cccc(C)c1.Cl (stereo not drawn)	BCHE			concentration not given, Triton		efficacy	-107 ± 9.04%
Cc1sc2c(c1C)C(c1ccc(Cl)cc1)=N[C@@H](CC(=O)OC(C)(C)C)c1nnc(C)n1-2	W12E, differentiated	CUT&RUN-qPCR, item: HPV origin		concentration not given		BARD1 binding	increased
Cl.Cl.Clc1ccccc1CNCC1CCC(CNCc2ccccc2Cl)CC1 (stereo not drawn)	BCHE	inhibitor				efficacy	-83.8 ± 15.7%
O=C(Nc1cccnn1)N1CCC(=Cc2cccc(Oc3ccc(C(F)(F)F)cn3)c2)CC1	PTGER4	binding, item: EP4		50 µM, human, with: [3H]prostaglandin E2		inhibition	86%
C[C@H]1CN(c2n[nH]c3nc(N[C@H]4CC[C@H](NS(=O)(=O)CCC(F)(F)F)CC4)ncc23)CCO1	26S proteasome non-ATPase regulatory subunit 3 (PSMD3, Homo sapiens, UniProt O43242)	inhibitor, Kinobeads competition profiling		0.8 µM	reference: vehicle	relative abundance	1.54

Some of these lines once more:
SMILES	target or system	test	system	conditions	how to read	endpoint	value
CNCC[C@@H](Oc1ccccc1C)c1ccccc1	Plasmodium falciparum		GB4			IC50	1.58 µM
CN(C(=O)n1cnc(-c2ccc[n+]([O-])c2)c1)C1CCCCC1	PTGER4	binding, item: EP4		50 µM, human, with: [3H]prostaglandin E2		inhibition	4%
Br.O=C(CN1C2=NCCN2c2ccccc21)c1ccc(-c2ccccc2)cc1	BCHE			concentration not given, Triton		efficacy	-106 ± 4.1%
